Experimental data from different studies.
Protocols differ between the studies behind these lines. ± marks the error that the study gave. Ends that are not written are not given here. * marks the point of attachment.

Palmitoyl-PCSTSSMA (N-palmitoyl; Palmitoyl = CCCCCCCCCCCCCCCC(=O)*) — tumour volume (AsPC-1, male SCID mice, subcutaneous AsPC-1 xenograft; intratumoral, 500 µg/mouse/day, 3 weeks, PBS with 80% DMSO vehicle): 154 ± 27.1 mm³
COc1cccc2c1C(=O)c1c(O)c3c(c(O)c1C2=O)C[C@@](O)(C(=O)CO)C[C@@H]3O[C@H]1C[C@H](N)[C@H](O)[C@H](C)O1 — tumour volume (mice bearing T47D xenografts; 5 mg/kg once weekly, 13 days after inoculation, treated 2 weeks): 67.7 ± 9.07 mm3
CCN1C(=CC=CC=CC2=[N+](CCCCCC(=O)NCCN3C(=O)CC(SCCC(=O)NCCCC[C@H](NC(=O)CNC(=O)[C@H](Cc4c[nH]c5ccccc45)NC(=O)[C@H](CCCNC(=N)N)NC(=O)[C@@H](Cc4ccccc4)NC(=O)[C@H](Cc4c[nH]cn4)NC(=O)CCCc4ccccc4)C(N)=O)C3=O)c3ccc(S(=O)(=O)O)cc3C2(C)C)C(C)(C)c2cc(S(=O)(=O)[O-])ccc21 (stereo partly shown) — tumour fluorescence signal (in vivo fluorescence imaging; nu/nu mice, A-375 xenograft, A-375 tumour, low MC1R; intravenous, 3 nmol/kg, 4 h; baseline: A-375/MC1R tumour): decreased
CCSSC[C@H](NC(=O)[C@H](CC(=O)O)NC(=O)[C@H](Cc1ccccc1)NC(=O)[C@H](CCC(=O)O)NC(=O)[C@@H](NC(C)=O)[C@@H](C)CC)C(=O)NCC(=O)N[C@@H](Cc1cn(CCCNC(=O)CCCCC[N+]2=C(/C=C/C=C/C=C3/N(C)c4ccc(S(=O)(=O)[O-])cc4C3(C)C)C(C)(C)c3cc(S(=O)(=O)O)ccc32)nn1)C(=O)NCc1ccc(C(=O)NCCCOc2cnc(C#N)nc2)cc1 — tumour fluorescence (BALB/c mice with CT26 tumour, CT26 tumour; intravenous, 5 nmol, day 16, added: anti-PD1 200 µg plus anti-CTLA4 100 µg; baseline: non-responders): increased
CCN(CC)c1ccc2nc3ccc(N=Nc4ccc(N(C)CCCC(=O)NCCCC[C@@H](NC(=O)CNC(=O)[C@H](CCCNC(=N)N)NC(=O)[C@@H](NC(=O)CNC(=O)[C@H](CC(C)C)NC(=O)[C@@H]5CCCN5C(=O)CNC(=O)CCCCC[N+]5=C(C=CC=CC=C6N(CC)c7ccc8c(S(=O)(=O)[O-])cc(S(=O)(=O)O)cc8c7C6(C)C)C(C)(C)c6c5ccc5c(S(=O)(=O)[O-])cc(S(=O)(=O)O)cc65)C(C)C)C(=O)NCC(=O)NCC(=O)NCCOCCOCCOCCOCCOCCOCCOCCOCCOCCOCCOCCO)cc4)cc3[n+](-c3ccccc3)c2c1 — tumour to background ratio (NIR fluorescence imaging; nude mice SCC-7 tumour; iv, 10 nmol, 2 h; baseline: muscle): 5.55 ± 0.75
CC(C)Oc1ccc(S(=O)(=O)c2ccc(Oc3cc(OCC(N)=O)c(C(=O)C(Cl)Cl)cc3[N+](=O)[O-])cc2)cc1 — tumour growth inhibition (NCI-H1299, female BALB/c nude mice, xenograft; intraperitoneal, 6 mg/kg once daily, 21 days): 66.6%
COc1cccc2c1C(=O)c1c(O)c3c(c(O)c1C2=O)C[C@@](O)(C(=O)CO)C[C@@H]3O[C@H]1C[C@H](N)[C@H](O)[C@H](C)O1 — tumour growth inhibition (BALB/c nude mice, HCT-8/ADR xenograft; peritumoral, 2 mg/kg every two days, 22 d): 79.1%
CCN(CC)CCCC(C)Nc1ccnc2cc(Cl)ccc12 (stereo not shown) — tumour weight (nude mice, ECa-109 xenograft; intraperitoneal, 60 mg/kg every other day, 2 weeks, added: sulforaphane 5 mg/kg): 0.94 ± 0.08 g
CC(=O)O[C@@]12CO[C@@H]1C[C@H](O)[C@@]1(C)C(=O)[C@H](O)C3=C(C)[C@@H](OC(=O)[C@H](O)[C@@H](NC(=O)OC(C)(C)C)c4ccccc4)C[C@@](O)([C@@H](OC(=O)c4ccccc4)[C@H]21)C3(C)C — tumour volume (mice bearing PC-3 xenografts; 5 mg/kg once weekly, 25 days after inoculation, treated 3 weeks): 197 ± 44.8 mm3
COc1cccc2c1C(=O)c1c(O)c3c(c(O)c1C2=O)C[C@@](O)(C(=O)CO)C[C@@H]3O[C@H]1C[C@H](N)[C@H](O)[C@H](C)O1 — tumour volume (mice, BT-474 xenograft; intraperitoneal, 1.5 mg/kg, week 3, after second treatment; baseline: pretreatment): 114 ± 61.8%
